Results pooled from the literature.
Several values in a cell are separate wells, animals, samples, runs or records.
Target: Vasopressin V1a receptor (AVPR1A, Homo sapiens, UniProt P37288)

Cc1cc(Nc2nc(C[C@@]3(C(=O)O)CCN(Cc4cccc(Cl)c4F)[C@H](C)C3)cc(C)c2F)[nH]n1
inhibition (inhibitor; 10 µM): -12%

Cc1cc(-c2ccc3ccccc3c2)nnc1NCCN1CCN(C)CC1
antagonist activity (antagonist; concentration not given): negative

COc1ccc(F)cc1S(=O)(=O)Nc1cnc2c(c1)C(=O)NCCO2
inhibition (ligand displacement, radioligand; 10 µM): -3%

CCc1nnc(-c2c(OC)cc(-c3cnc4cc(-c5cnn(C)c5)ccn34)cc2OC)o1
remaining binding (agonist radioligand, radioligand binding; 10 µM, SafetyScreen44 V1a replicate 2; lower = stronger displacement): 103%

CCN(CC)CCOc1ccc(-c2nnn(Cc3ccc(OC)cc3)c2N)cc1
inhibition (radioligand binding; CHO; 10 µM, human, with: radioligand 10000 nM): -12.1%

CS(C)(=O)=Nc1ccc(-c2ccc(-c3nc4cc(O[C@@H]5CO[C@H]6[C@@H]5OC[C@H]6O)[nH]c4cc3F)cc2)cc1
inhibition (calcium signal, antagonist; 10 µM): 44%

Cc1sc2c(c1C)C(c1ccc(Cl)cc1)=NC(CC(=O)OC(C)(C)C)c1nnc(C)n1-2 (stereo not shown)
remaining binding (ligand displacement, radioligand; 1 µM): 105%

N[C@H](C(=O)N1CCCC1)C1CCN(c2nccc3c(-c4ncc(Cl)cc4Cl)cccc23)CC1
response (functional response, agonist; 10 µM): 20%

C/C(=N\OCCCN1CCCCC1)c1ccc(C(F)(F)F)cc1
inhibition (antagonist, IP-One; 10 µM): 2.53%

O=C(O)c1ccc(-c2nc(-c3ccccc3Cl)c3sccn23)cc1
specific binding (radioligand binding, safety screen panel; 10 µM; reference: control): 99.6% and 80.6%
